Measurements of several laboratories.
Compare with care: the assays were run in different laboratories. ± marks the error that the study gave.
ACHE: Acetylcholinesterase (ACHE, Homo sapiens, UniProt P22303)
Sequence of UniProt P22303 (whole entry, looked up): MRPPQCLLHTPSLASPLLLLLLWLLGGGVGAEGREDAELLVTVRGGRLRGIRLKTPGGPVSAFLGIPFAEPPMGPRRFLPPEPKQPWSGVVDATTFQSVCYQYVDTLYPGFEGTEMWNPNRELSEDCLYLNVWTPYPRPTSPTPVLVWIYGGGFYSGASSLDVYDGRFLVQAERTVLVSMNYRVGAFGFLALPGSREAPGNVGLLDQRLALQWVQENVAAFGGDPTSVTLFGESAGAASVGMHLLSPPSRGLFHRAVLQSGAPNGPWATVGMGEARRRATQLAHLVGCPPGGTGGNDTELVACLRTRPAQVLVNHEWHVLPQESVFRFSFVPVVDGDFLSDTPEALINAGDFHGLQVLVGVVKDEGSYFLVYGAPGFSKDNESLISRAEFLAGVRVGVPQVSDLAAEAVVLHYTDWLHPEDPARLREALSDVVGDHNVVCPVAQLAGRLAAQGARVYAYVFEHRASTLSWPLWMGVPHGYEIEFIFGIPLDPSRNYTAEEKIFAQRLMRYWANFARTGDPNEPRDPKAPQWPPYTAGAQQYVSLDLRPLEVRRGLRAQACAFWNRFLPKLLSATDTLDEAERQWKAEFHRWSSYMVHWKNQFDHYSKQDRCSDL
cas9: CRISPR-associated endonuclease Cas9/Csn1 (cas9, Streptococcus pyogenes serotype M1, UniProt Q99ZW2)
Sequence of UniProt Q99ZW2 (whole entry, looked up): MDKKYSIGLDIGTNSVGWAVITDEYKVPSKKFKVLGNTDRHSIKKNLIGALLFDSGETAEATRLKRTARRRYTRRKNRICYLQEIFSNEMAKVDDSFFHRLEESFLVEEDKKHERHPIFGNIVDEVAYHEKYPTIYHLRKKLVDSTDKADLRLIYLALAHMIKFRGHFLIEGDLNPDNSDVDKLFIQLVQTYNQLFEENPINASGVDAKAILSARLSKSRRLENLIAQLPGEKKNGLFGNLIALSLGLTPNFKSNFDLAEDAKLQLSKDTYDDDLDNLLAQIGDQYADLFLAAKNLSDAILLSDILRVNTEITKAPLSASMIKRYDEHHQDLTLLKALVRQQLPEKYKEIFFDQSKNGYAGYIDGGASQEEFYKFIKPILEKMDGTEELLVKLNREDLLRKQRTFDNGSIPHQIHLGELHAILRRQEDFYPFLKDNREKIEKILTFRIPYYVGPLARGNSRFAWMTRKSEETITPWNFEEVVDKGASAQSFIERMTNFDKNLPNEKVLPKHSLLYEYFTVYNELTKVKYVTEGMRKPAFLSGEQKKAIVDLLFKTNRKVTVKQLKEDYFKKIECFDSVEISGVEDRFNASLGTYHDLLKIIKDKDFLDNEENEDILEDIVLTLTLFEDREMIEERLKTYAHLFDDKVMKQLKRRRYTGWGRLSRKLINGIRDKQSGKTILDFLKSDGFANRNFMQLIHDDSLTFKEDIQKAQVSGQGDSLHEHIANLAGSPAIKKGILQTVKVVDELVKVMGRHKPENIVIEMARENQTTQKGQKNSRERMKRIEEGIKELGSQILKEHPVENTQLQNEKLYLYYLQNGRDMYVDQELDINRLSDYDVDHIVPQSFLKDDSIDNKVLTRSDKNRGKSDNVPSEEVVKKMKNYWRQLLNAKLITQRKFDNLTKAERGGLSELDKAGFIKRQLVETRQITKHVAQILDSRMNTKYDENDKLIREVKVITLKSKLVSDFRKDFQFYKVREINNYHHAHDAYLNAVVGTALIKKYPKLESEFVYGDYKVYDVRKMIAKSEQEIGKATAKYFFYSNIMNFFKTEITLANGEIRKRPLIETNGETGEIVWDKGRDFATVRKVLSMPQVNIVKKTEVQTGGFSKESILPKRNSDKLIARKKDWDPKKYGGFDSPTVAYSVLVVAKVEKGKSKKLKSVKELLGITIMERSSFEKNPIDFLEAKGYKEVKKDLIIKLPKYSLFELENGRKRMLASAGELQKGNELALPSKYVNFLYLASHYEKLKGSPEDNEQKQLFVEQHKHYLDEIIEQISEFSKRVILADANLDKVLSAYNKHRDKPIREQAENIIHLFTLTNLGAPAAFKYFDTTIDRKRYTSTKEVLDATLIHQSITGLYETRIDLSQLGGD
Sequence of UniProt Q9GZZ6 (whole entry, looked up): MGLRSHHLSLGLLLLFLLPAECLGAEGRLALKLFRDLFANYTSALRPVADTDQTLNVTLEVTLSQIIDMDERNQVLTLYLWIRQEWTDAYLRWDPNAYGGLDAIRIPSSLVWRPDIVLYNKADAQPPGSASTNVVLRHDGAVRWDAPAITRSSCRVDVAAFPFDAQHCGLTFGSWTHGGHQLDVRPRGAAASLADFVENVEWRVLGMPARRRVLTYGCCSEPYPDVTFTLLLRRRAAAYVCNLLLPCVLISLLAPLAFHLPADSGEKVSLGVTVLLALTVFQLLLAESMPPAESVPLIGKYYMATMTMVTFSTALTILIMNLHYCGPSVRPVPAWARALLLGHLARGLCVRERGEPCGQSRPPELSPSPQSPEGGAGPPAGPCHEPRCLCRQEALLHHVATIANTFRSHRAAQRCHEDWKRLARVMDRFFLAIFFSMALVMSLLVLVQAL
Sequence of UniProt P05181 (whole entry, looked up): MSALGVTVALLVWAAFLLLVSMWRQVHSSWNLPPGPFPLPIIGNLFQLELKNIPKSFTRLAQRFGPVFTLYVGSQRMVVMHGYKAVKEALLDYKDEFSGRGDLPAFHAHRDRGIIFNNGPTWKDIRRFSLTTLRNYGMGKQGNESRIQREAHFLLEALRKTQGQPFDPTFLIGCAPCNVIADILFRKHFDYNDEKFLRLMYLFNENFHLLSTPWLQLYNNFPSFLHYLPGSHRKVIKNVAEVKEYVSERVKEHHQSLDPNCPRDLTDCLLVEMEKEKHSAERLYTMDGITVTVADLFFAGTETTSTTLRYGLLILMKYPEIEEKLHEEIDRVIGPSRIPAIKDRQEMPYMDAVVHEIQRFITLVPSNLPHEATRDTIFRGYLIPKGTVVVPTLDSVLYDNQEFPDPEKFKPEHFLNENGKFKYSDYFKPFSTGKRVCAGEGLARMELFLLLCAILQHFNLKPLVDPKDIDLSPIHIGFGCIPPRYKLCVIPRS
Sequence of UniProt P41252 (whole entry, looked up): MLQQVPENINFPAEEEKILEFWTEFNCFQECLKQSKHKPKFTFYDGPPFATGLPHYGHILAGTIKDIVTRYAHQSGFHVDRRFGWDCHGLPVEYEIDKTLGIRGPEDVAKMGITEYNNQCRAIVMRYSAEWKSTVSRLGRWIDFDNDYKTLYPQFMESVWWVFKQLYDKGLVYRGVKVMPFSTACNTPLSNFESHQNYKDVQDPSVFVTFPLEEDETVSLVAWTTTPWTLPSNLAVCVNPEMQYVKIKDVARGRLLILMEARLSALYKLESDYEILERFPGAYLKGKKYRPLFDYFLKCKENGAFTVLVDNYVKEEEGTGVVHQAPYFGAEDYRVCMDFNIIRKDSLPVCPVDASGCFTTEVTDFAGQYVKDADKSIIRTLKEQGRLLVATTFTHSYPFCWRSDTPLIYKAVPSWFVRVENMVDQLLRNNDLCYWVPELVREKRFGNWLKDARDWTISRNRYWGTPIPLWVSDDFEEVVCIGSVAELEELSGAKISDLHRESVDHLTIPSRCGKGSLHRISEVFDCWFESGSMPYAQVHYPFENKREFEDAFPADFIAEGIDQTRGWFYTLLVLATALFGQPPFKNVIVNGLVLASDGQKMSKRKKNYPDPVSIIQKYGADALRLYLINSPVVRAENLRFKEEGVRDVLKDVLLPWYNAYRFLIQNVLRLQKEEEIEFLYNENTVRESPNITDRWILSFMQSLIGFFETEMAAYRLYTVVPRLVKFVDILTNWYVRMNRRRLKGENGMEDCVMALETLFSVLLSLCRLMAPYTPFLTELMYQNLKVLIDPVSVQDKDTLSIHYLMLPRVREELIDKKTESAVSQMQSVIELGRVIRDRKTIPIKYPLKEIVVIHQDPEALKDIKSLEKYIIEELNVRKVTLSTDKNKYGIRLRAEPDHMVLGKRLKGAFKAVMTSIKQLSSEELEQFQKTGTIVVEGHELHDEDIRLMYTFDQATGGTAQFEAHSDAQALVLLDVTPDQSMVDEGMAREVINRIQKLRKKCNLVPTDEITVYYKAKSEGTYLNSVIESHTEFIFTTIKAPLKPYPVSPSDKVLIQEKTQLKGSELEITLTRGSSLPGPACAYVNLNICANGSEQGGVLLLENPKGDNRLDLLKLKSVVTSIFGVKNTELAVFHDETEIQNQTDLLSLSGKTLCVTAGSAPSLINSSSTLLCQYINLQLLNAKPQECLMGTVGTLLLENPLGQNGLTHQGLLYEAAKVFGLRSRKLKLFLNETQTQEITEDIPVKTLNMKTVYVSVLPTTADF
Sequence of UniProt Q9UGM1 (whole entry, looked up): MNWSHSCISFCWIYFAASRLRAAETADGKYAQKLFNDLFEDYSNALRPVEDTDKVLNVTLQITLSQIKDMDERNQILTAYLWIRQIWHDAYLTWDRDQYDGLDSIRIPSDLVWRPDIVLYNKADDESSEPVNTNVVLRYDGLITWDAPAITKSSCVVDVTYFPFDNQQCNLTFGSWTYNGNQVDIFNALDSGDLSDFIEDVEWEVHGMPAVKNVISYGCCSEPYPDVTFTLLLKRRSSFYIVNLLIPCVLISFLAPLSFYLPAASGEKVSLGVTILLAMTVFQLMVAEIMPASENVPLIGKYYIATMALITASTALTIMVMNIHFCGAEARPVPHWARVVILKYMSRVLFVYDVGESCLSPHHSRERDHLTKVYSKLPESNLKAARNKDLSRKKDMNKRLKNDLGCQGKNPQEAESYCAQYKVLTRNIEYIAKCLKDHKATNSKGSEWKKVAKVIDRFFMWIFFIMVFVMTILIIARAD
Sequence of UniProt P41143 (whole entry, looked up): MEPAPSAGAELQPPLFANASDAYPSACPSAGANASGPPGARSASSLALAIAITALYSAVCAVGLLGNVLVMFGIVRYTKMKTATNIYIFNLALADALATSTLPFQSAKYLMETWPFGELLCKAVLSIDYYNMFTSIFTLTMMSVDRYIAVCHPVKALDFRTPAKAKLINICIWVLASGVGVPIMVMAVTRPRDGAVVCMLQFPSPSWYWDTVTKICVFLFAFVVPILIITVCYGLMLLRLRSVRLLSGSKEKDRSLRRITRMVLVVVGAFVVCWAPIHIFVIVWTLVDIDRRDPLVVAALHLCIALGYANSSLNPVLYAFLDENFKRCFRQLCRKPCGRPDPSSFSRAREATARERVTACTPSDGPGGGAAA

`Nc1c2c(nc3c1C(c1cccc(Br)c1)c1ccc(OCC(=O)c4ccccc4)cc1O3)CCCC2` (stereo not drawn) gave an IC50 of 1.14 µM (ACHE; enzyme activity, inhibitor).
`C[N+]1(C)CCC(OC(=O)C(O)(c2ccccc2)C2CCCC2)C1` (stereo not drawn) gave an IC50 of 11.1 µM (Gag polyprotein, nucleocapsid protein p7 (gag, Human immunodeficiency virus type 1 group M subtype B, UniProt P04591); NCp7-RNA binding, AlphaScreen; HIV-1; with: 25 nM NCp7, 12.5 nM RNA).
With `Nc1c2c(nc3c1C(c1cccc(Br)c1)c1ccc(OS(=O)(=O)c4ccccc4)cc1O3)CCCC2` (stereo not drawn) the IC50 was 1.34 µM (ACHE; enzyme activity, inhibitor).
The IC50 of `CNCCC=C1c2ccccc2CCc2ccccc21` is reported as 0.27 ± 0.09 µM (Neuronal acetylcholine receptor; alpha9/alpha10 (Homo sapiens, UniProt Q9GZZ6+Q9UGM1); inhibitor).
`CCCCCCCCOc1ccccc1C(=O)Nc1ccc(C(=O)OCC[N+](C)(CC)CC)cc1` has an IC50 of 100 to 200 µM (cas9; circular plasmid substrate; Streptococcus pyogenes).
For `Oc1ccc(-c2cccc(Cl)c2)cc1Cl`, the IC50 was 20 µM (AHR (Homo sapiens, UniProt P35869); reporter gene, antagonist; AZ-AHR cells; 24 h, with: TCDD 4.5 nM).
The IC50 of `COc1cc(Nc2ncc(F)c(Nc3ccc4c(n3)NC(=O)C(C)(C)O4)n2)cc(OC)c1OC` is reported as over 10 µM (OPRD1 (Homo sapiens, UniProt P41143)).
`C[C@H]1CN(c2n[nH]c3nc(N[C@H]4CC[C@H](NS(=O)(=O)CCC(F)(F)F)CC4)ncc23)CCO1` gave an IC50 of at least 20 µM (Isoleucine--tRNA ligase, cytoplasmic (Homo sapiens, UniProt P41252); biochemical).
`CCC(C(=O)Nc1sc(C(N)=O)c(C)c1C(=O)OC)c1ccccc1` (stereo not drawn) has an IC50 of over 100 µM (DNA polymerase processivity factor, with UL42 processivity factor (Human herpesvirus 1, UniProt P10226); inhibitor).
With `CCC(CC)CSc1ccccc1OC(=O)NC` the IC50 was 0.023 µM (Acetylcholinesterase (Rhipicephalus microplus, UniProt O45210, W384F)).
`c1ccc2c(c1)OCC(C1=NCCN1)O2` (stereo not drawn) has an IC50 of 0.0075 µM (imidazoline I2 receptor, rat central; radioligand binding).
For `CC(C)C[C@H](NC(=O)[C@H](CCC(N)=O)NC(=O)[C@H](Cc1ccccc1)NC(=O)[C@H](C)NC(=O)[C@H](CCCCN)NC(=O)[C@H](CC(=O)O)NC(=O)[C@H](CCC(=O)O)NC(=O)[C@@H](N)CC(C)C)C(=O)O`, the IC50 was over 70 µM (HLA class I histocompatibility antigen, B alpha chain (Homo sapiens, UniProt P01889); peptide-MHC binding, radioligand competition binding).
For `O=C(O)C1=CC(=C(c2ccc(O)c(C(=O)O)c2)c2ccc(O)c(C(=O)O)c2)C=CC1=O`, the IC50 was 5 to 10 µM (cas9; linear substrate; Streptococcus pyogenes).
`N[C@@H](Cc1cc(I)c(O)c(I)c1)C(=O)O` gave an IC50 of 4.1 µM (Cytochrome P450 2E1 (CYP2E1, Homo sapiens, UniProt P05181); p-nitrophenol hydroxylation, inhibitor; baculosomes; 10 min, with additive 1 µM).
With `CCCCCCCCCCCCCCCC(=O)OC[C@H](O)[C@H]1OC(=O)C(O)=C1O` the IC50 was 8 ± 1 µM (Hyaluronate lyase (hylB, Streptococcus agalactiae serotype III, UniProt Q53591); enzyme activity).

Repeated from above:
`c1ccc2c(c1)OCC(C1=NCCN1)O2` (stereo not drawn) has an IC50 of 0.0075 µM (imidazoline I2 receptor, rat central; radioligand binding).
With `Nc1c2c(nc3c1C(c1cccc(Br)c1)c1ccc(OS(=O)(=O)c4ccccc4)cc1O3)CCCC2` (stereo not drawn) the IC50 was 1.34 µM (ACHE; enzyme activity, inhibitor).
With `CCCCCCCCCCCCCCCC(=O)OC[C@H](O)[C@H]1OC(=O)C(O)=C1O` the IC50 was 8 ± 1 µM (Hyaluronate lyase (hylB, Streptococcus agalactiae serotype III, UniProt Q53591); enzyme activity).
